Published values from different studies.
Each numbered part is a random draw from the data of one study; scales do not carry over between parts. Positions count from the first letter of the parent shown.

Study 1
Target: Ras GTPase-activating protein-binding protein 1, C-terminal RGG region (G3BP1, Homo sapiens, UniProt Q13283)
UniProt Q13283, sequence (whole entry, looked up): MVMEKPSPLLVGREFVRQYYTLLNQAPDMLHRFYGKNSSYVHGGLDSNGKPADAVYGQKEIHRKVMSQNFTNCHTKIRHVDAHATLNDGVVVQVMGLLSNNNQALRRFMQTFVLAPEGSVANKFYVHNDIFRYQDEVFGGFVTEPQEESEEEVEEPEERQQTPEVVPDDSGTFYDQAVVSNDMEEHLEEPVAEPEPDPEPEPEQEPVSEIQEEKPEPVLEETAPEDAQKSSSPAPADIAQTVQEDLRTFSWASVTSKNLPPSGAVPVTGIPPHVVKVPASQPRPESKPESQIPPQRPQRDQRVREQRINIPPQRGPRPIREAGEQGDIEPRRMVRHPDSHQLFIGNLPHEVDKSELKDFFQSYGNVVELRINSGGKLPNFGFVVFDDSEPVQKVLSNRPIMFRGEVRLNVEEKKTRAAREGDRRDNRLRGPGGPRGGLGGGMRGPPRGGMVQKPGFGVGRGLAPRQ
Method: RNA Bind-n-Seq
Form: RNA
Medium: in vitro
Concentration: 1 µM
Setting: whole 134-nt RNA, ends assumed
Added: 150 mM KCl
Relative to: input library
Direction: higher = stronger binding
Strand | log2 enrichment
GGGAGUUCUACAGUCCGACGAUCUGGCCCUGGUGGCAUGCGGGGAGGAAGAGGUGGCCUCAUGGAUCGUGGUGGUCUCGGUGGAAUGUUCAGAGGUGGCCGUGGUGGAGACAGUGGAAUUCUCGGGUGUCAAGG | 2.26
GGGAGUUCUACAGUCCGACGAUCCCUGUGCUACACAUCGUAUGUACCGAAUCGGGAAAAAAAGGGAAAAAAAGGAAAAAAAGGAAAGUAUUAUGUUACGCCGUUCGGAUCUGCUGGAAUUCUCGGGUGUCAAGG | -1.63
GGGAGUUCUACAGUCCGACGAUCUGUGGACGACAAUGAGGAGACCAUCAAAAAGCGGCUGGAGACCUAUUACAAGGCCACAGAACCUGUCAUCGCCUUCUAUGAGAAACGUGGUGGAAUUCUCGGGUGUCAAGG | -1.16
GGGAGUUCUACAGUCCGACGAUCUGGCCCUGGUGGCAUGCGGGGAGGAAGAGGUGGCCUCAUGGAUCGUGAUGGUCCCGGUGGAAUGUUCAGAGGUGGCCGUGGUGGAGACAGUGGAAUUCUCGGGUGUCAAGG | 2.25
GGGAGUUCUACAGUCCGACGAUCCCUGUGCUACACAUCGUAUGUACCGAAUCGGGAAAAAAGGGGAAAAAAGGGAAAAAAGGGAAAGUAUUAUGUUACGCCGUUCGGAUCUGCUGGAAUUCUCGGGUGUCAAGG | -1.65
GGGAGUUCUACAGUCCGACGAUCACCAUGCAGGUGGGCAUCUUUGGGAAGUGGGCCAAGGGGGGGAUAGGGAGGGGGGUAACACUUUGGGAACAGGUGGUCCCAGGUCGUUUCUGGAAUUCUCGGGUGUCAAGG | -0.884
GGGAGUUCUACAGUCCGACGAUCUAACUUUAGAGGAGGAUCUGAUGGAUAUGGCAGUGGACGUGGAUUUGGGGAUGGCUAUAAUGGGUAUGGAGGGGGACCUGGAGGUGGCAAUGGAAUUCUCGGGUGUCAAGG | -1.02
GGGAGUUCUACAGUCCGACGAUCUAAGAAGGAAAUUGAGAGGAGAAAAACUGGAAAAGAAAUGUUGGAUUAUAAAAGAAAACAAGAAGAAGAAUUAACAAAAAGAAUGCUGGAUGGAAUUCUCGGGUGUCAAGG | -1.33
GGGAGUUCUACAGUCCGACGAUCGUCCUGUGCUACACAUCGUAUGUACCGAAUCAAACCCAAACCCCCAAACCCCCCCAAAAAAGUAUUAUGUUACGCCGUUCGGAUCUGCACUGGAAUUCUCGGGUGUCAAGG | -0.965
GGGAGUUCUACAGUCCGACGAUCAAGUCCUGUGCUACACAUCGUAUGUACCGAAUCGGUUUUUUUGGUUUUUGGAAAGGAAAGUAUUAUGUUACGCCGUUCGGAUCUGCACUUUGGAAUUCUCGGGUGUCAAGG | -2
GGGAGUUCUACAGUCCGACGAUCUGGGAGGUGGAUUUUGUUUAUUUUUUUAGCUCAUUUCCAGGGGUGGGAAUUUUUUUUUAAUAUGUGUCCUGAAUAAAGUUGUUUUUGAAAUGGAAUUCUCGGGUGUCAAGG | 4.03

Study 2
Target: Prothrombin, mature alpha-thrombin (F2, Homo sapiens, UniProt P00734)
Method: aptamer microarray, sandwich
Form: DNA with 2'F-ANA
Medium: in vitro
Concentration: 200 nM
Setting: whole 15-mer aptamer, many near background
Added: Cy3 exosite-II aptamer, 400 nM
Direction: higher = stronger binding
Strand: GGTTGGTGTGGTTGG
Modification | mean fluorescence intensity
2'F-ANA at 3 5 7 12 14 | 63.7 a.u.
2'F-ANA at 1 7 9 12 15 | 417 a.u.
2'F-ANA at 2 3 5 7 9 13 | 82 a.u.
2'F-ANA at 3 4 11 13 14 15 | 320 a.u.
2'F-ANA at 2 3 4 7 8 10 11 14 15 | 173 a.u.
2'F-ANA at 1 3 4 6 7 14 | 68.3 a.u.
2'F-ANA at 4 5 9 10 12 | 55.5 a.u.
2'F-ANA at 1 2 13 | 138 a.u.
2'F-ANA at 2 3 4 5 7 8 10 14 15 | 78.3 a.u.
2'F-ANA at 1 3 4 5 6 7 8 9 13 14 15 | 46.5 a.u.

Study 3
Target: ABI1, truncated, D143A, DHFR fusion (Arabidopsis thaliana)
Method: DHFR PCA, deep sequencing
Medium: yeast
Setting: methotrexate growth selection, single substitutions
Added: (+)-ABA 1.4 µM
Relative to: wild-type fitted maximum
Direction: higher = stronger binding
Starting sequence: PYL1, truncated, DHFR fusion (Arabidopsis thaliana); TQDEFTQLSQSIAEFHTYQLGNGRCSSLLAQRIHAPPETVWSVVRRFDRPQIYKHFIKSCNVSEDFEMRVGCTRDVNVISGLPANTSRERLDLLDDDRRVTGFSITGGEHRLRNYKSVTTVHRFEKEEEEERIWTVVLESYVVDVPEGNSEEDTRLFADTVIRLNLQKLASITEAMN
Change | relative binding score [%]
I33M | 20.8
V137Y | -6.79
C25E | -18.7
R46G | -7.56
S11L | 31
R32P | 28.4
C72P | 6.84
S140T | 3.75
Y115W | -5.28

Further values, each from its own experiment
Substance | target | assay | test system | setting | scale | quantity | value
PhoQ, residues 284 288 289 292 302 303 SQSLSM | PhoP, residues 12 14 15 18 19 LYFRQ (Escherichia coli, UniProt P23836) | Sort-seq, item: YFP reporter | E. coli | PhoQ-PhoP variant library, added: 10 µM Mg2+ | relative to: high Mg2+ state, higher = stronger signaling | fold induction | 10.3

A few entries again (study 3):
Change | relative binding score [%]
Y115W | -5.28
R46G | -7.56
